Assay results collected from several papers.
Each line is one published result; not all experiments were run side by side. “And” joins repeats or separate records; there may be more than shown.
RPS6KA1: Ribosomal protein S6 kinase alpha-1 (RPS6KA1, Homo sapiens, UniProt Q15418)

| SMILES | target | assay | test system | conditions | scale | endpoint | result |
| --- | --- | --- | --- | --- | --- | --- | --- |
| O=C(Cc1ccc(OCc2ccccc2)cc1)NC1(C(=O)O)CCN(C(=O)c2ccc(-c3cccc(Cl)c3)cc2)CC1 | RPS6KA1 | enzyme activity, inhibitor | – | 10 µM | – | activity vs control | 129% |
| CN1CC[C@@H](COc2cnc(C#N)cc2-c2ccn3nc(NC(=O)C4CC4)cc3c2)C1 | RPS6KA1 | enzyme activity, inhibitor | – | 1 µM | – | inhibition | 6% |
| C=CC(=O)Nc1cccc(-c2cnc3[nH]cc(C(=O)NC(C)(C)C)c3n2)c1 | RPS6KA1 | kinase activity | – | 0.1 µM | – | inhibition | 10% and 9% |
| CNC(=O)C[C@H](Cc1ccc(C#N)cc1)NC(=O)c1cc(-c2ccc(CN[C@H](C)c3ccc(C)cc3)o2)ccc1Cl | RPS6KA1 | enzyme activity, inhibitor | – | 1 µM | – | activity vs control | 91% |
| Cc1cccc(O[C@H]2CCC[C@@H](C(C)CNCc3ccncc3)C2)c1 (relative stereo) | RPS6KA1 | enzyme activity, inhibitor | – | 1 µM | – | inhibition | 1% |
| COc1ccc(NC(=O)Nc2ccc3c(c2)C(=O)N(C(C)CO)CC(C)C(CN(C)Cc2ccc4c(c2)OCO4)O3)cc1 (centres unmarked) | RPS6KA1 | kinase activity, KinaseProfiler | – | 0.03 µM, species human | baseline: control | remaining activity | 92% |
| O=C(O)CCC(=O)c1cccc(NS(=O)(=O)c2c[nH]c3ncccc23)c1 | RPS6KA1 | kinase activity, radiometric | – | 10 µM | – | remaining activity | 110% |
| C=CC(=O)Nc1cc(-c2nn(C3CCN(CCNC(=O)[C@H](C)CCC45CC6CC(CC(C6)C4)C5)CC3)c3ncnc(N)c23)ccc1Oc1ccccc1 | Ribosomal protein S6 kinase alpha-1, kinase domain 2 (RPS6KA1, Homo sapiens, UniProt Q15418) | inhibitor, KiNativ profiling | biochemical | 2 µM | – | inhibition | 8.7% |
| O=C=[N][Ru-4]123([n]4c5ccc(O)cc5c5c6c(c7cc(F)c[n+]1c7c54)C(=O)NC6=O)[S+]1CC[S+]2CC[S+]3CC1 (centres unmarked) | RPS6KA1 | enzyme activity | – | 100 nM, human enzyme, with: 10 µM ATP | baseline: untreated | remaining activity | 26% |
| Cc1cccc(-c2ccc3nc(NC(=O)C4CCOCC4)nn3c2)c1 | RPS6KA1 | enzyme activity, Dundee kinase panel | – | 10 µM | – | remaining activity | 70% |
| NC(=O)[C@@H](O)C[C@H]1CCc2sc3ncnc(O[C@H]4CC[C@H](N5CCOCC5)CC4)c3c21 | RPS6KA1 | enzyme activity, inhibitor | – | 10 µM | – | inhibition | 33% |
| CS(=O)(=O)Nc1cccc(-c2csc3cnc(Nc4ccc(N5CCN(CCCCCOc6cccc7c6C(=O)N(C6CCC(=O)NC6=O)C7=O)CC5)cc4)nc23)c1 (centres unmarked) | Ribosomal protein S6 kinase alpha-1, kinase domain 1 (RPS6KA1, Homo sapiens, UniProt Q15418) | probe labelling, inhibitor, KiNativ chemoproteomics | MOLT-4 | 1 µM | – | inhibition | -17.2% |
| COc1ccc(C(=O)/C=C/c2ccccc2-c2c[nH]c3ccc(C#N)cc23)c(O)c1 | RPS6KA1 | enzyme activity, inhibitor | – | 20 µM | – | inhibition | 25% |
| Cc1cccc(-c2ccc3nc(NC(=O)C4CCCCC4)nn3c2)c1 | RPS6KA1 | enzyme activity, Dundee kinase panel | – | 10 µM | – | remaining activity | 67% |
| O=c1c(-c2ccc(Cl)c(CN3CCOCC3)c2)coc2cc(O)ccc12 | RPS6KA1 | enzyme activity, inhibitor | – | 1 µM | – | remaining activity | 121% |
| COc1cc(-n2cc3cc(F)cc(C(N)=O)c3n2)cc(Cl)c1C1CC(O)(CCO)Cc2ccccc21 (centres unmarked) | RPS6KA1 | enzyme activity, inhibitor | – | 10 µM | – | inhibition | 0.11% |
| C=CC(=O)N1Cc2nc(-c3cc(-c4cc(Cl)cnc4Cl)c(F)cc3F)n(-c3ccncn3)c2C1 | RPS6KA1 | cell-free assay, inhibitor | – | 1 µM | – | inhibition | 2.9% |

A few entries again:
| SMILES | target | assay | test system | conditions | scale | endpoint | result |
| --- | --- | --- | --- | --- | --- | --- | --- |
| Cc1cccc(-c2ccc3nc(NC(=O)C4CCCCC4)nn3c2)c1 | RPS6KA1 | enzyme activity, Dundee kinase panel | – | 10 µM | – | remaining activity | 67% |
| O=c1c(-c2ccc(Cl)c(CN3CCOCC3)c2)coc2cc(O)ccc12 | RPS6KA1 | enzyme activity, inhibitor | – | 1 µM | – | remaining activity | 121% |
